# Assay results of several laboratories.
# Numbered parts are unrelated; each lists some results of a single study. Positions count from the first letter of the parent shown.

# Set 1 — method: protein-binding microarray; molecule type: double-stranded DNA, one strand shown; sample: in vitro; concentration: 2540 nM top; setting: 60-bp whole probe; with: salmon DNA 0.4 mg/ml; relative to: random background probes; reading: higher = stronger binding; shared flanks, not repeated: GCCTAGCAC … GTCTTGATTCGCTTGACGCTGCTG
# Target: Interferon regulatory factor 3, full length, phosphomimetic (IRF3, Homo sapiens, UniProt Q14653, residues 1-427, S386D/S396D/S398D/S402D/T404D/S405D)
# Sequence of UniProt Q14653 (whole entry, unmodified, looked up): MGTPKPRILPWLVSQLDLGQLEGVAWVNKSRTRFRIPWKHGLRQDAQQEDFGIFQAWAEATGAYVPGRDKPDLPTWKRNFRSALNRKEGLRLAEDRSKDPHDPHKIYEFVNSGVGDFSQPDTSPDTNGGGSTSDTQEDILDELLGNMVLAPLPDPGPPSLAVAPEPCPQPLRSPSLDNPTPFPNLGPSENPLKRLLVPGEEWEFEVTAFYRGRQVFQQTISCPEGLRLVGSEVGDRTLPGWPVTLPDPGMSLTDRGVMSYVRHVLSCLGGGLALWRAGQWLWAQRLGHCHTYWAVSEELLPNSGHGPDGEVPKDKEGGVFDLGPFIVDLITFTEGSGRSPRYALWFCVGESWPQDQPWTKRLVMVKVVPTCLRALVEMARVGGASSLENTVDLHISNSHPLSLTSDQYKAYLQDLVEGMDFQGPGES
Oligonucleotide,fitted relative affinity [z-score]
GACGGACTGGGGTATCTGGACGTGCTA,-0.752
TCATTTTTCCCCTGCACACTGTGCTAG,1.9
GACGAACTGGGGTTTCGAGAAGTGCTA,0.0998
TTAGGTATCGGGTTTCTGTTAGTGCTA,2.44
GACCAACTGGGGTTTCGAGACGTGCTA,0.534
TCAATTATTTATTGTAGCACTGTGCTA,0.181
AACGGTTTCCTTATCCTGACGTGCTAG,7.79
TTAGGTTTCCTACTGATTTAGTGCTAG,4.34
GACGGTCTCGTTTTCGGGACGTGCTAG,2.57
TTAGGTCTCCTTATTCTTTAGTGCTAG,2.48
TTTGATTTCAGTTTCGATTAGTGCTAG,5.97
TTAGGTTTCCGGACTGGGTTAGTGCTA,4.19
TTAGATTTCCGGTTTCGATTAGTGCTA,4.52
GACGGTATGCTACTGCTGACGTGCTAG,-0.517
GACGATATCAGCTTCGAGACGTGCTAG,0.267
TTAGGTCTCCGACTGGGTTAGTGCTAG,0.245
TCAAAAATGATTGGTTGACTGTGCTAG,-0.393
TTAGGTCTCAGTTTCGGTTAGTGCTAG,5.39
TCAATCTTATGATATATAACTGTGCTA,0.417

# Set 2 — method: aptamer microarray, sandwich; molecule type: DNA with 2'F-ANA; sample: in vitro; concentration: 200 nM; with: Cy3 exosite-II aptamer, 400 nM; reading: higher = stronger binding; oligonucleotide: GGTTGGTGTGGTTGG
# Target: Prothrombin, mature alpha-thrombin (F2, Homo sapiens, UniProt P00734)
# Setting: whole 15-mer aptamer, many near background
Modification,mean fluorescence intensity [a.u.]
2'F-ANA at 4 5 6 7 9 11,59.3
2'F-ANA at 1 7 8 10 13 15,52.9
2'F-ANA at 2 3 5 6 7 10 12 13 14,58.9
2'F-ANA at 1 3 4 8 9 12 13 15,295
2'F-ANA at 1 2 6 10 11 12 14 15,52.2
2'F-ANA at 2 3 8 11,940
2'F-ANA at 4 7 9 14,91.1
2'F-ANA at 2 4 6 7 8 9 11 12 14,102
2'F-ANA at 8 9 11 12 13 15,645
2'F-ANA at 2 3 7 10 11,458
2'F-ANA at 2 5 6 7 9 10,87.7
2'F-ANA at 2 3 4 6 7 8 9 11 13 14,190
2'F-ANA at 2 4 6 11,232
2'F-ANA at 1 2 4 6 8 9 10 11 13,53.3
2'F-ANA at 3 5 6 8 12,254
2'F-ANA at 2 3 4 5 6 7 9 10 11 13 14 15,51.2
2'F-ANA at 2 3 5 9 10 14 15,48
2'F-ANA at 1 2 4 6 7 8 9 10 11 14 15,48.5
2'F-ANA at 4 5 6 8 14,47.8

# Set 3 — target: CCNB1, cyclin fold, Cln2 fusion (human); method: yeast growth competition, sequencing; sample: yeast; setting: strong parent motif; relative to: not given; reading: higher = stronger binding
# Parent: MASTL docking peptide (human); PMIAKNLMCELDE
Substitution,normalised enrichment score
E10P,-0.0717
K5Q,-0.0134
I3E,0.298
L7K,0.192
I3D,-0.00596
M8Y,1.41
A4S,1.58
M8C,0.033
D12C,0.813
M2D,2.61
C9N,1.82
K5W,0.326
L7N,-0.0178
L7C,-0.0233
N6A,0.0292
D12F,0.743
M2Y,1.69

# Set 4 — method: RNA Bind-n-Seq; molecule type: RNA; sample: in vitro; concentration: 365 nM; relative to: no-protein control; reading: higher = stronger binding
# Target: RNA binding protein fox-1 homolog 2, RRM domain, GST-SBP tag (RBFOX2, Homo sapiens, UniProt O43251-10, residues 100-194)
# Setting: natural RNA segment, single round, ends assumed
# Shared flanks, not repeated: GGGAGUUCUACAGUCCGACGAUC … UGGAAUUCUCGGGUGCCAA
# Residues (chain): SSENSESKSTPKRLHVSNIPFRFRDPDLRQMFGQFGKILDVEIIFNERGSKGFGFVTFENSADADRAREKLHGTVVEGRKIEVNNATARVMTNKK
Oligonucleotide,RBNS enrichment (R)
UGGCAGUUGCACCUGACCUUCAUUUCUUCUCAAAUUUGACCAGUUCAAGAGACUCGUAGAUGACUUUGCCUCCACAGCCGAUUUCCUCAUCAUUUACAUUGAAGAAGCUC,0.476
UUUGAGGACUCAUUAGUUGGCAGGUCACAGUUGUUUGAAGUCACUAUGGGUCAUAGUGACUCUGGAGAGGUCCUGGCAGCCCUGAGGAUGUGGAAACCACUAGGGGGCUC,0.438
UUUAACACAAGGGCCCUCCUUGUCAUUGACCUUAGCUAAACCAUGGCAAUUCAUAAAUAGAGGAAACAUUAAUGAAUUAAAAGCAUUCCUUAUUUUUUAACUAAUAUUUG,0.435
GGAUUAUCUGUCAUUCAAGAUCCUUCCUUCAACCCCAAGGUCAGCUCCCAUCUCAUUUCCAGAAAGGCUCAUACCUGGCUUGCAGGGAAGCAUCUGUCUUGUCAUUCCAG,0.423
UUAUCAAUAAUCUAACCGACAAAGAUCAUAUCCAUGUGUAUGUGGUUAGACAUUUUUAUUUCAUUGACUAACCCAGGACAGUUUCAGUGAUGCAAAUUGUGUGCCCUCUG,0.492
AUUUGAAUUGUACCAGCAAUGGACUUUUAAAAAAUUGGAUGUAAAACCAUUCAGGGUGAUUUUUCUUGUCAGUGGACAGUGACGAACAGAGAUUUGAAAUCCCUUACCUC,0.739
CCACACUAUGUGUGUUGUUUCCAUAGCUCUUCACUUCCUCCAGAAGCCUCCUUACAUUAAAAAGCCUUACAGUUAUCCUGCAAGGGACAGGAAGGUCUGAUUUGCAGGAU,0.442
AAGAGCUGGUCUGGAGUGUCUCCUCACAGUGACCUCUGAGGCCUCAGAAUAGCCUGCCUAAUAAGAAGGACUUCGAACCAUUCCCUAUGGCCUCAUCUGGGACUGUUGGU,0.21

# For quick reference, copied from above (set 3):
Substitution,normalised enrichment score
L7C,-0.0233
D12F,0.743
A4S,1.58
D12C,0.813
C9N,1.82
